Assay results gathered from unrelated publications.
Parts stem from different laboratories: compare values within a part only.
Chain of UniProt Q8TDC3 (whole entry, looked up): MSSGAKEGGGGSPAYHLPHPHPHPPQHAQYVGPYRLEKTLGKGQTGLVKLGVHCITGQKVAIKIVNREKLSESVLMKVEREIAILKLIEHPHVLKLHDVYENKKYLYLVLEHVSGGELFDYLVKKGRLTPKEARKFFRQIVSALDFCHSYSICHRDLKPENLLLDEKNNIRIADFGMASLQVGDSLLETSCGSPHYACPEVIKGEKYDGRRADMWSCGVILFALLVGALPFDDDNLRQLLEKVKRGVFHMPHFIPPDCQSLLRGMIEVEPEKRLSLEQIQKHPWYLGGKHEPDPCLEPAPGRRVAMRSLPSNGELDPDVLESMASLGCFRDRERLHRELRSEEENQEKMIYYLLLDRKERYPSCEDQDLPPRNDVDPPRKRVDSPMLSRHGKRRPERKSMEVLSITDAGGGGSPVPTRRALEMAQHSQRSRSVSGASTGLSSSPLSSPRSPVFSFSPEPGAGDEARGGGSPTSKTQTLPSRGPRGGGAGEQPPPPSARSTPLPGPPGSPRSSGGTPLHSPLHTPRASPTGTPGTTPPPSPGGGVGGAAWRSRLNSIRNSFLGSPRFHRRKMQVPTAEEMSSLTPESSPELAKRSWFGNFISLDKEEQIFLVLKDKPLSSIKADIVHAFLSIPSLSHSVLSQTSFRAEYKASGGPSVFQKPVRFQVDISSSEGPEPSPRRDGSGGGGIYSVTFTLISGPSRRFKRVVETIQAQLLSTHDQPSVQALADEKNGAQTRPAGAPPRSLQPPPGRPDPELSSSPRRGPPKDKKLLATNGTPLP
Chain of UniProt Q05655 (whole entry, looked up): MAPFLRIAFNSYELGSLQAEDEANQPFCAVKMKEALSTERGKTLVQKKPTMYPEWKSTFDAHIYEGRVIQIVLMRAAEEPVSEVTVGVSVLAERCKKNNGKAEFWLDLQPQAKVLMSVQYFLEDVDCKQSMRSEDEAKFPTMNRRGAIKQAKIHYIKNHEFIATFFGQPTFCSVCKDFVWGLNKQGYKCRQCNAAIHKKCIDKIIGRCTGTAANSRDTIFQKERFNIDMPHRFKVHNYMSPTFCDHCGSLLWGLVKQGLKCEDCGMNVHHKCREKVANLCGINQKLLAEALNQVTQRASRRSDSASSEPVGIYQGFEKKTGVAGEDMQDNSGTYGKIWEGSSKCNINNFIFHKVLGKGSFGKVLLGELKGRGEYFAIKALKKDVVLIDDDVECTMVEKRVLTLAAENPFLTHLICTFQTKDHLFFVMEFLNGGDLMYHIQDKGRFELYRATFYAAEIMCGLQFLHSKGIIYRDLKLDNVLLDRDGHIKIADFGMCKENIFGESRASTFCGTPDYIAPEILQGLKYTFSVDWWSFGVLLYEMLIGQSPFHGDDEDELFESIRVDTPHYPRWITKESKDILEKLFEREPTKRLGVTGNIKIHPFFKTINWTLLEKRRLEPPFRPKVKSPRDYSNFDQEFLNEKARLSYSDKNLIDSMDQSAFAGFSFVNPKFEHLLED
Chain of UniProt Q6ZWH5 (whole entry, looked up): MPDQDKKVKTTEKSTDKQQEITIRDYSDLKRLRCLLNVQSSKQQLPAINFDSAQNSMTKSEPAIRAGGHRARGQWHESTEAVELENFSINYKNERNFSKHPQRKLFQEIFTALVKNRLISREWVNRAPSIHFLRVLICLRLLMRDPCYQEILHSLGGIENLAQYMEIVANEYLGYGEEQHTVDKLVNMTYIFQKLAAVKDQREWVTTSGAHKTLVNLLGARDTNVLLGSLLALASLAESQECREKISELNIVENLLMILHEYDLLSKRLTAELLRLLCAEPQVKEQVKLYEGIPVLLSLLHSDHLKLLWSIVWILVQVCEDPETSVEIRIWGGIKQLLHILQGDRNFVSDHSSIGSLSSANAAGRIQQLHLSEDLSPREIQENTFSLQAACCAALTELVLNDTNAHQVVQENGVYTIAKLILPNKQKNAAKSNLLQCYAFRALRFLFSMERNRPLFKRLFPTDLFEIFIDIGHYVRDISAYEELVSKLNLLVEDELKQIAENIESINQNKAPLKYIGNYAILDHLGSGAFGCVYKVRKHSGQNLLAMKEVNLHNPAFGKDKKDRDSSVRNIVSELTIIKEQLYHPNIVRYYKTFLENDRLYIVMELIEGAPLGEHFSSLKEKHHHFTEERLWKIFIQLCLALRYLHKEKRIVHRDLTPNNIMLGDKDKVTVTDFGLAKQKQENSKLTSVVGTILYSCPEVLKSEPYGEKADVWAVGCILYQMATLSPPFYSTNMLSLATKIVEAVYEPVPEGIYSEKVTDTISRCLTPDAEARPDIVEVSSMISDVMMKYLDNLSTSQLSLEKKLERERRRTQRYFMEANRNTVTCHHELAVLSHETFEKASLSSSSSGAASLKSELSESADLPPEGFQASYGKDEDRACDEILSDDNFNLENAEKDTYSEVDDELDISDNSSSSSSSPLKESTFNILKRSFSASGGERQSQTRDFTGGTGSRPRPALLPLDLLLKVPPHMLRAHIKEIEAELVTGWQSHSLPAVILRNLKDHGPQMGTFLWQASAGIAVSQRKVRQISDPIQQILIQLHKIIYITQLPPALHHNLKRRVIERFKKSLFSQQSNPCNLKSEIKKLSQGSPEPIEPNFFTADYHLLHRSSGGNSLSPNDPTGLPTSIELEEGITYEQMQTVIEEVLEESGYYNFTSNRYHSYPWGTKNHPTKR
Chain of UniProt Q13976 (whole entry, looked up): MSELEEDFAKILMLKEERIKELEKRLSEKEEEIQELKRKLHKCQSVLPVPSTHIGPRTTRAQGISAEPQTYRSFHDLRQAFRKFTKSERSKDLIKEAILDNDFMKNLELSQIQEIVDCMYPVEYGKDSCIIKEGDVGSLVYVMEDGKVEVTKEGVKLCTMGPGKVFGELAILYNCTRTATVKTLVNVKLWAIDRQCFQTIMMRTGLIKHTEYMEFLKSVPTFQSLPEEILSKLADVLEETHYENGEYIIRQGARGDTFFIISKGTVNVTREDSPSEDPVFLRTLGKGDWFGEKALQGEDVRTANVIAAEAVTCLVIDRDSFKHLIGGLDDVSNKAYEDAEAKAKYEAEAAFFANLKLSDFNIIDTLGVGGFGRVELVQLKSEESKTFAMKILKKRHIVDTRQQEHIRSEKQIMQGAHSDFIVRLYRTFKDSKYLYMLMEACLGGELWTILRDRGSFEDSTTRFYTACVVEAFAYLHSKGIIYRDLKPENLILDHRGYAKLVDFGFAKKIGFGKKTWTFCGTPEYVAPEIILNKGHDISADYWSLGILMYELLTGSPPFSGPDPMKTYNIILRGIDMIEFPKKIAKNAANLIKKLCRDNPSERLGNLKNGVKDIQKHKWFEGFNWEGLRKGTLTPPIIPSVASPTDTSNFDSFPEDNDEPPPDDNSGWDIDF
Chain of UniProt Q13177 (whole entry, looked up): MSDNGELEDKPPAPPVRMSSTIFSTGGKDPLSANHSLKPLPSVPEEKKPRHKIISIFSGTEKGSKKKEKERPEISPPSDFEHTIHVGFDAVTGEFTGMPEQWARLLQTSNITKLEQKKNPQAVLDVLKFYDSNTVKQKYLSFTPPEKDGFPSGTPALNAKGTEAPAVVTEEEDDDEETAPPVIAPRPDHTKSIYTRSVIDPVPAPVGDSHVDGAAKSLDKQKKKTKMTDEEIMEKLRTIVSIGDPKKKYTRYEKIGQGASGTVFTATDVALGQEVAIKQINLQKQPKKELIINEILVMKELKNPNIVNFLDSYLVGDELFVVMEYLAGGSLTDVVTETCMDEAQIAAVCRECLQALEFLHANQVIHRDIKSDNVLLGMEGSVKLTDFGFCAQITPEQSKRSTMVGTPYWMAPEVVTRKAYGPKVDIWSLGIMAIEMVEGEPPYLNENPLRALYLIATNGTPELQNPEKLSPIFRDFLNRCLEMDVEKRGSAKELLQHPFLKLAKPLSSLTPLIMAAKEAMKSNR

Study 1
SMILES: CNC(=O)Nc1ccc2c(c1)[C@@]1(CC2)OC(=O)N(CC(=O)N(Cc2ccc(F)cc2)[C@@H](C)C(F)(F)F)C1=O
Read-out: cell-free assay
Technique: competition with immobilised ligand
Tested at: 1 µM
target | remaining binding [%]
Activated CDC42 kinase 1 (TNK2, Homo sapiens, UniProt Q07912) | 87
Citron Rho-interacting kinase (CIT, Homo sapiens, UniProt O14578) | 100
Serine/threonine-protein kinase Nek10 (NEK10, Homo sapiens, UniProt Q6ZWH5) | 91
Serine/threonine-protein kinase PAK 2 (PAK2, Homo sapiens, UniProt Q13177) | 94
Protein kinase C delta type (PRKCD, Homo sapiens, UniProt Q05655) | 75
cGMP-dependent protein kinase 1 (PRKG1, Homo sapiens, UniProt Q13976) | 100
Serine/threonine-protein kinase BRSK1 (BRSK1, Homo sapiens, UniProt Q8TDC3) | 100

Study 2
Target: Prothrombin, mature alpha-thrombin (F2, Homo sapiens, UniProt P00734)
Technique: aptamer microarray, sandwich
Molecule type: DNA with 2'F-ANA
Matrix: in vitro
Tested at: 200 nM
Setting: whole 15-mer aptamer, many near background
Together with: Cy3 exosite-II aptamer, 400 nM
Reading: higher = stronger binding
Sequence: GGTTGGTGTGGTTGG
Modification | mean fluorescence intensity [a.u.]
2'F-ANA at 2 3 4 8 9 12 13 14 | 296
2'F-ANA at 2 3 4 5 8 9 10 11 12 13 14 | 53.9
2'F-ANA at 2 3 5 8 10 11 12 14 | 73.8
2'F-ANA at 1 4 5 7 8 9 10 15 | 64.1
2'F-ANA at 1 3 4 5 8 9 10 11 12 14 | 47.9
2'F-ANA at 1 3 5 7 8 9 10 12 15 | 141
2'F-ANA at 1 5 6 8 10 | 48.5
2'F-ANA at 1 2 5 6 7 8 15 | 64.8

Study 3
Target: Platelet-derived growth factor receptor alpha (PDGFRA, Homo sapiens, UniProt P16234)
Chain of UniProt P16234 (whole entry, looked up): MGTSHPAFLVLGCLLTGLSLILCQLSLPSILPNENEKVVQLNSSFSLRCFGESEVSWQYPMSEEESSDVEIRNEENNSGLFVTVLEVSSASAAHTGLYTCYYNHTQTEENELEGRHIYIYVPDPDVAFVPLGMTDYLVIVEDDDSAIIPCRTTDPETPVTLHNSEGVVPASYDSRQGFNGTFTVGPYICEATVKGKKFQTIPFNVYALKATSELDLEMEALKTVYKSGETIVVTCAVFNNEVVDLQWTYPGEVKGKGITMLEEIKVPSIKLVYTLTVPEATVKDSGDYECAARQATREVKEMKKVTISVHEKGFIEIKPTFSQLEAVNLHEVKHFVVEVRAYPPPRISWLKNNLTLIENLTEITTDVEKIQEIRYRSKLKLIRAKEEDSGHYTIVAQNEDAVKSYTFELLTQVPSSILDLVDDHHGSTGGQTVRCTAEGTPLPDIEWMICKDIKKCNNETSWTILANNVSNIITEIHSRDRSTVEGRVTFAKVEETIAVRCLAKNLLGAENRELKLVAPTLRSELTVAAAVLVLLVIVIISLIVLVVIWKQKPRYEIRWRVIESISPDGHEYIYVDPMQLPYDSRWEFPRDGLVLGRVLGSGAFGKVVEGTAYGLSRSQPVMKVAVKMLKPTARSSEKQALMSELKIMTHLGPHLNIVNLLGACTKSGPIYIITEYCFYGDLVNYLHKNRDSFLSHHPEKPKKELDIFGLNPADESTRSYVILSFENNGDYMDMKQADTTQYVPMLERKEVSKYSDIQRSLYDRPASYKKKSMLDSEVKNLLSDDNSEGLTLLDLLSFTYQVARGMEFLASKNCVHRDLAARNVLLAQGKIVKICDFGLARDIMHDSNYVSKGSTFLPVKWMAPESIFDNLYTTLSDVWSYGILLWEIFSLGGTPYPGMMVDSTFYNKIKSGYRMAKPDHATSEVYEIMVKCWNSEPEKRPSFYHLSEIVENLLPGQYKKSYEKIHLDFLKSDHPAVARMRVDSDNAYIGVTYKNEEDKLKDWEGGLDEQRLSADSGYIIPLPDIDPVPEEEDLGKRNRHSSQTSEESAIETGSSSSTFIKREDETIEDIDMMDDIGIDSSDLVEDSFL
Read-out: enzyme activity
Action: inhibitor
Tested at: 0.5 µM
Baseline: control
Compound | remaining activity [%]
CSc1nc(-c2ccnc(N[C@@H](C)c3ccccc3)c2)c(-c2ccc(F)cc2)[nH]1 (racemic) | 102
Oc1ccc(Nc2nc(-c3ccc(Cl)cc3)cs2)cc1 | 101
Nc1nc(Nc2ccc(S(N)(=O)=O)cc2)nn1C(=O)c1c(F)cccc1F | 82
CCc1[nH]c(-c2ccc(OC)cc2)nc1-c1ccncc1 | 96.3
Fc1ccc(-c2nc3n(c2-c2ccncc2)CCS3)cc1 | 98
O=C1NC(=O)C(c2c[nH]c3ccccc23)=C1c1c[nH]c2ccccc12 | 90.6
O=C1Cc2c([nH]c3ccc([N+](=O)[O-])cc23)-c2ccccc2N1 | 91.8
COc1ccc(S(=O)(=O)N(CCO)c2ccccc2CN(C)CC=Cc2ccc(Cl)cc2)cc1 | 102
Nc1nccc(-c2c(-c3ccc(F)cc3)ncn2C2CCNCC2)n1 | 95.8
Cc1ccc(NC2=CC(=O)c3sc(C)nc3C2=O)cc1 | 85.9
O=S(=O)(NCCNC/C=C/c1ccc(Br)cc1)c1cccc2cnccc12 | 98.8
NC(=O)c1ccc(N(C(N)=O)c2c(F)cccc2F)nc1-c1ccc(F)cc1F | 102

Study 4
SMILES: CC(C)n1cnc(-c2ccc(F)cc2)c1-c1ncc(C(=O)Nc2ccc(N3CCN(C)CC3)cc2)[nH]1
test | system | conditions | patients with adverse event
measured: abnormal liver function test, grade 4 | idiopathic pulmonary fibrosis patients | dose not given, all compound arms pooled | 0%
Phase 2a trial, measured: hepatic steatosis | human, idiopathic pulmonary fibrosis | 30 mg once daily, grade 2 | 0%
Phase 2a trial, measured: blood pressure increased | human, idiopathic pulmonary fibrosis | 30 mg once daily, grade 2 | 0%
Phase 2a trial, measured: hepatobiliary disorders | human, idiopathic pulmonary fibrosis | 60 mg once daily, grade 2 | 0%

Excerpt of the above (study 3):
Compound | remaining activity [%]
O=C1Cc2c([nH]c3ccc([N+](=O)[O-])cc23)-c2ccccc2N1 | 91.8
COc1ccc(S(=O)(=O)N(CCO)c2ccccc2CN(C)CC=Cc2ccc(Cl)cc2)cc1 | 102
Nc1nccc(-c2c(-c3ccc(F)cc3)ncn2C2CCNCC2)n1 | 95.8
Cc1ccc(NC2=CC(=O)c3sc(C)nc3C2=O)cc1 | 85.9
O=S(=O)(NCCNC/C=C/c1ccc(Br)cc1)c1cccc2cnccc12 | 98.8
